Experimental data of several laboratories.
Every numbered part comes from another study and shows a few of its results, in no order. Substitutions count along the parent as printed.

Sample 1
Target: Interferon regulatory factor 7, full length, phosphomimetic (IRF7, Homo sapiens, UniProt Q92985, residues 1-503, S101K/S471D/S472D/S475D/S476D/S477D/S483D/S484D/S487D)
Technique: protein-binding microarray
Molecule type: double-stranded DNA, one strand shown
Sample: in vitro
Tested at: 250 nM
Notes: 60-bp whole probe
With: salmon DNA 0.4 mg/ml
Relative to: random background probes
Reading: higher = stronger binding
Shared flanks, not repeated: GCCTAGCAC … GTCTTGATTCGCTTGACGCTGCTG
Target sequence (chain): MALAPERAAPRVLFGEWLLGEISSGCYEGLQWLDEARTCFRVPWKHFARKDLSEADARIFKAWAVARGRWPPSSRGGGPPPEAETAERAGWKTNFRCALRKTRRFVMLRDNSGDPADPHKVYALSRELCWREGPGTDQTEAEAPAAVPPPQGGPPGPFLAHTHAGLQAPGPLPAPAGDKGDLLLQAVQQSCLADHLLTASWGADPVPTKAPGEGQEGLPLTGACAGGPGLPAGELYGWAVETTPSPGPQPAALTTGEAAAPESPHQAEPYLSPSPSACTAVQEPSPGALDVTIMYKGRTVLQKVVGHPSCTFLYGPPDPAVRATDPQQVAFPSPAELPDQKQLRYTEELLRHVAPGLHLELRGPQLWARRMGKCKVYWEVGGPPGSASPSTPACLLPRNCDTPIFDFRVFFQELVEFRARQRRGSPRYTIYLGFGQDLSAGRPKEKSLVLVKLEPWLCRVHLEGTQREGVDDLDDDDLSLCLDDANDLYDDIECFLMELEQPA
Sequence	log fluorescence [z-score]
GACGGTATCGGTCGCGGGACGTGCTAG	0.00315
TGATGTCTGGGTCTTGGTTCGTGCTAG	-0.0944
GACGGTATCTGACTGGGGACGTGCTAG	-0.422
TTAGGTATCGGTTGCGGTTAGTGCTAG	1.36
TTAGATTTCGGGTTTCGATCAGTGCTA	4.4
GACGTTCTCAGTATCGAGACGTGCTAG	0.736
TTAAGTCTCCTTCTCCTTTAGTGCTAG	0.615
TTAGGTTTCCTTTTTCTTTAGTGCTAG	5.22
TTAGGTCGCGGTATCGGTTAGTGCTAG	1.52
GACGAACTGGTGTTTCGAGACGTGCTA	0.558
GACGGACTGGCTATCGGGACGTGCTAG	-0.628
TTAGGTTTCGGGTTTCGGTTTGTGCTA	13.4
TTAGAACTGAGTTTCGCTTAGTGCTAG	5.56
GTCGATATCGGGTTTCGAGACGTGCTA	3.64
CTTCCTTTACTTTCTTTTTTGTGCTAG	2.21
TTAGGTTTCGGTTCCGGTTCGTGCTAG	12.9
GACGATCTTAGTATCGAGACGTGCTAG	0.162
TGAGATATCAGTATCGATTAGTGCTAG	0.652
GACGGTCTCGGTTGCGGGACGTGCTAG	1.23
GACGAATTGAGTATCGAGACGTGCTAG	0.000939
GACGGTCTCGGTCTCGGGAGGTGCTAG	0.629
GTAGGTTTCGGGTATCGGTTAGTGCTA	7.43
TTAGGTATCCTACTACTTTAGTGCTAG	0.0973
TCAATTCTCTTCTTGCAACTGTGCTAG	1.28
CCTTATCCCTAATCTCAGCCTGTGCTA	1.24

Sample 2
Target: CCND3, cyclin fold, Cln2 fusion (human)
Technique: yeast growth competition, sequencing
Sample: yeast
Notes: weak parent motif
Relative to: not given
Reading: higher = stronger binding
Starting sequence: SGO1 docking peptide (human); PLAKRALKYTDEK; partner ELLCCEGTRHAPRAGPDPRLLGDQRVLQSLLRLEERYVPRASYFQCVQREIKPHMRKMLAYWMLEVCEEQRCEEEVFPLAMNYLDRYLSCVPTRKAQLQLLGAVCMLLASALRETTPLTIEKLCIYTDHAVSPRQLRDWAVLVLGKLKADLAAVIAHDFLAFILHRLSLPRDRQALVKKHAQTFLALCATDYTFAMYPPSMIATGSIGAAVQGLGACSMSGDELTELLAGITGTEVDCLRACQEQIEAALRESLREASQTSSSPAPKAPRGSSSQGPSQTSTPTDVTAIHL
Substitution	normalised enrichment score
PLAKAALKYTDEK [R5A]	0.00451
PLAKRALKYTDEA [K13A]	-0.0119
PAAKRALKYTDEK [L2A]	0.22
PLAARALKYTDEK [K4A]	0.0958
PLAKRAAKYTDEK [L7A]	0.0884

Sample 3
Target: RING finger protein unkempt homolog, zinc fingers 1-6, GST-SBP tag (UNK, Homo sapiens, UniProt Q9C0B0, residues 30-357)
Chain of UniProt Q9C0B0 (30-357, looked up): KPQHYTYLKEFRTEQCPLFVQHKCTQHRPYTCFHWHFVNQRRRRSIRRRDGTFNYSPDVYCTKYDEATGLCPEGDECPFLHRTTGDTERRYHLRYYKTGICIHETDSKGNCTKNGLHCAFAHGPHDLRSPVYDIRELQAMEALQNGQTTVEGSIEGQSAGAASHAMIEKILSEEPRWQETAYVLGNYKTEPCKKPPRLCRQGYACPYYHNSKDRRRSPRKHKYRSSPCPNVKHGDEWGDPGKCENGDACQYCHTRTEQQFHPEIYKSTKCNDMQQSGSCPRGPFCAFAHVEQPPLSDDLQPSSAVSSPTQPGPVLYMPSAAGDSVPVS
Technique: RNA Bind-n-Seq
Molecule type: RNA
Sample: in vitro
Tested at: not given
Notes: RNA with constant flanks, human and mouse sites, ends assumed
Relative to: input RNA pool
Reading: higher = stronger binding
Sequence	bound/input enrichment [ratio]
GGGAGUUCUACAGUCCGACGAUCUCUGGUUCACUUCUAUUAUGAAUAAAUUUGCACCAAUAGCCCCAUUAGUUUUUAAAGAAAUGAGCUGGGUGGGAAAAGUGGAAAUGUAAUUUCUGGUAAGCUUGAGCUACUUUAAUUUUUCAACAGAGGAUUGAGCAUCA	2.18
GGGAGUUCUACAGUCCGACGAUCUAUGAUGAAAAUAUUAACAUUUCUAGAUUAAAAGUAUGACUGAUCUUUCGUUAUCCACUGUAGCAAGGUGAAAGCACACACAAUCGAAAUCCAUAGAUAAUCAGUGUUUAGCCUUCUCCUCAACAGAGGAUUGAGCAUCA	0.722
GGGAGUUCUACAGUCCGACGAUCUAAAUGAUAGACAAUUGAGGUAAGUUUUUUGAAAUUAUGUGACAUUUUACAUUAAAUUUUUUUUACAUUUUUUGGGCAGCAAUUUAAAUGUUAUGACUAUGUAAACUACUUCUCUUGUUACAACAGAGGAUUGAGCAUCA	0.719
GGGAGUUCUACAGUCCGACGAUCGAGAAAGGGGAGAUGCAGGUUGUUCCAGUUUUGGUGCAUCUCCUGUCUGCCAUCAGCACUGUCAGGCUCUAUAUUCCAAAAGACCUUCGACCUGUGGACAACAGACAGAGUGUCUUAAAACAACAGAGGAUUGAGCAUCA	0.0605
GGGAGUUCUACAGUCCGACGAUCCCAACCUUUUGAUGUUGUGACUUGAAGCCUGAGAAUUGAAUGUUUUAAGUGAGUUUACAGUUUAGUGCUGGGCCACAUUCCUAGUUAUUCUGAGGUAUACGCAGCCUGCAAGCUGCGGUUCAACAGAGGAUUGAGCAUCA	0.237
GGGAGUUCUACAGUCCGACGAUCAUAACUACUCCUGCCAUGGCGGUCAGUCAUAUCAUGUUGGAAUCAUAUAAAAAGUAUAUUUUAGUGUCUUUGAUAUUACUUGGCAAAGUACAACAGCUACCAAAAUAUACAUCUCAAAUUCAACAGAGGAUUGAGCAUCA	0.109
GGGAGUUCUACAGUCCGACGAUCCUUCAGUUGUAUGAAGUACAGUUUGAAAUCUUGAAGUGUGAAGAGUUACUAUUGACAGCGCAACUAGAAAGCAUCAAAAGACUUAUAUCAGAAAAAAGAGAUGAAGUGGUAUACUAUGACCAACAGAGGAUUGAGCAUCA	0.426
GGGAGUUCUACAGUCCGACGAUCAAGGCCUUCAUCACAUACCGAACCCUUACAAACCACAAAAAAGUUCAUCUUGGGGAGAAGCCCUACAAAUGUGAUGUGUGUGAGAAAUCUUUUAAUUACACAUCGCUCCUUUCUCAGCACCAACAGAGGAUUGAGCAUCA	0.13
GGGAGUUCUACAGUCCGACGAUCGUAGCCCGGCGCUCGGCAUGGCUCUCCUGGUGCUCGGUCUGGUGAGCUGUACCUUCUUUCUGGCAGUGAAUGGUCUGUAUUCCUCUAGUGAUGAUGUGAUCGAAUUAACUCCAUCGAAUUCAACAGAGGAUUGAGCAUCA	0.215
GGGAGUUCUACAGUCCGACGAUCGUGGAGCCGGCGGACGCCUCCGGUACCGAGAAAGCUUUCGAGCCAGCAACCGGCCGAGUGAUAGCUACUUUCACAUGUUCAGGAGAAAAGGAAGUAAAUUUGGCUGUUCAAAAUGCAAAGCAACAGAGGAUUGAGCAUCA	0.152
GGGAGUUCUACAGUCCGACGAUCGGGACAAUUCAUCUCUUUCGAAAACCACAAAGAUCCUUUUUUGGCAAGUUGUUACGGGAAUUUAGACUUGUAGCAGCUGACCGAAGGUCCUGGAAGAUACUGCUCUUUGGUGUAAUAAACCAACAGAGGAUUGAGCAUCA	0.185

Sample 4
Target: Sal-like protein 4, full length isoform A (SALL4, Homo sapiens, UniProt Q9UJQ4, residues 1-1053)
Chain of UniProt Q9UJQ4 (whole entry, looked up): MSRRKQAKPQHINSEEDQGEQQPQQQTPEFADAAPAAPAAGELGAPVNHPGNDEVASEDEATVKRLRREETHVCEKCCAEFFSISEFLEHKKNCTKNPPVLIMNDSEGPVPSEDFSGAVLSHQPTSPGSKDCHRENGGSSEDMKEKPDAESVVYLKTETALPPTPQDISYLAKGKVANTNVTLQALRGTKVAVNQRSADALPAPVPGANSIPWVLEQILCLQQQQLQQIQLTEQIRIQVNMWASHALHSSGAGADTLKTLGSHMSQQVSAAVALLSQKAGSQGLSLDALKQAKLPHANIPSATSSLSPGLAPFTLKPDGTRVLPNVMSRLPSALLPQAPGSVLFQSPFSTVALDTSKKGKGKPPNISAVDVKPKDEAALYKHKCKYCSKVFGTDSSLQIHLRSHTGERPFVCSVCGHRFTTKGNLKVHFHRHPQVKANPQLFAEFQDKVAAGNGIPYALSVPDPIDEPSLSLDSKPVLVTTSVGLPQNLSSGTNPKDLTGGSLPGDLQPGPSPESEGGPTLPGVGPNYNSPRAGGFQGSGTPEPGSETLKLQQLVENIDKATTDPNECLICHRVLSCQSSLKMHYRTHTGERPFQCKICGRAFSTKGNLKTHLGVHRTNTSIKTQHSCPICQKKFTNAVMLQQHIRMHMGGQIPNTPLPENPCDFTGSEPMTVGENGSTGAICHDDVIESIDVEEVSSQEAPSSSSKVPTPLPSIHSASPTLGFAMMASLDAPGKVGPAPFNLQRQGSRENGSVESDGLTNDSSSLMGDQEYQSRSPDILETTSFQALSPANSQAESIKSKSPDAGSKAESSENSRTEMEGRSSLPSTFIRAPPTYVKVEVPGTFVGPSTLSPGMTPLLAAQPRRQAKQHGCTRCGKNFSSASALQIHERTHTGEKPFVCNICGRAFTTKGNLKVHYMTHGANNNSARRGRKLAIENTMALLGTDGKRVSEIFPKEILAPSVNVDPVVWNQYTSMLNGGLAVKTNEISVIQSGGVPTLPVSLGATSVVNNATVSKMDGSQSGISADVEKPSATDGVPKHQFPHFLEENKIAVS
Technique: universal PBM
Molecule type: double-stranded DNA, one strand shown
Sample: in vitro
Tested at: 600 nM
Notes: 8-mer, flanks averaged, mean of replicates
Reading: higher = stronger binding
Sequence	E-score
GAAATATA	0.431
CTTTCCCC	-0.0909
AGGTGTCG	-0.288
ATCGTTGA	0.0954
ACCCGCGC	-0.306
CTCAGTTA	0.0586
AACAGGAA	0.177
CCCCGCAG	-0.348
ATGGGGTC	-0.287
CATGTGGA	-0.0592
TCAGGTCA	-0.071
CACGGCAC	-0.175
AATGGGCA	0.0171
GGGATTAC	-0.168
ATACCGCA	-0.0314
AACCAAAT	0.108
CCTAGACC	-0.146
CCTTCATC	-0.0805
GCCACATA	-0.029
GTCTTCAA	0.208

Sample 5
Target: RNA binding protein fox-1 homolog 2, RRM domain, GST-SBP tag (RBFOX2, Homo sapiens, UniProt O43251-10, residues 100-194)
Technique: RNA Bind-n-Seq
Molecule type: RNA
Sample: in vitro
Tested at: 365 nM
Notes: natural RNA segment, single round, ends assumed
Relative to: no-protein control
Reading: higher = stronger binding
Residues (chain): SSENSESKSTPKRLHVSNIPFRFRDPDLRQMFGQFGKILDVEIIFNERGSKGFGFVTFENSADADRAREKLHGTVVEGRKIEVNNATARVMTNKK
Sequence	RBNS enrichment (R)
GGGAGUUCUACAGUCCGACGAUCGGCAGUUGUGCCAACCCAAGGGCUCUUUCAUUGUUCGUUGGCUUCUGUCUUUAAAGCCAAGAAAGUAGUAAUUAAGUAGCCUAGAUUUAAGGAGGGUAGAAUAAGCAUUUUGGAAUUCUCGGGUGCCAA	0.573
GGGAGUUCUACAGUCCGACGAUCCCAUUCUCACCUAUCCACACAACAUAUCCGUAUAUAUCCCCUCUACUCUUACUUCCCCCAAAUUUAAAGAAGUAUGGGAAAUGAGAGGCAUUUCCCCCACCCCAUUUCUCUGGAAUUCUCGGGUGCCAA	1.27
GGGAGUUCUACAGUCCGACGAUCUAAGUUGCUGGGGAAAGUUAGAGGAACUGAAAGUUUGGGAAUAGGCUGACCACAUAUUAUGCCAGUGACCAGUAUGACAGGAGAUGGGGCCCUGCUGCCAGUCAUCUCCAUGGAAUUCUCGGGUGCCAA	0.843
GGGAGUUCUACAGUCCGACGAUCCACUGGUCGUCAGGGAGCUCCUCCCCUUGGCCCCCAGCCUGUGCCAGCCCUGGCCCGGCUGCCACACCUCUGUUUCCUAGGCUGGGGACCCAGCUUGUCUCUCCUUGUUUUGGAAUUCUCGGGUGCCAA	0.903
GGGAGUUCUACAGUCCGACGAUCCGCCGGCGCAGGGUCCCAAGCCCACCUCCCGCCCUCAGUCCUGCGGUGUGCGUCUGGGCACGUCCUGCACACACAAUGCAAGUCCUGGCCUCCGCGCCCGCCCGCCCACGUGGAAUUCUCGGGUGCCAA	0.184
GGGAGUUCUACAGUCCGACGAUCUUUGUACGUAUGAAUGAUAUCUUUGACCUCAAUGGAGGUUUGCAAAGACUGAGUGUUCAAACUACUGUACAUUUUUUUUCAAGUGCUAAAAAAUUAAACCAAGCAGCUUAUGGAAUUCUCGGGUGCCAA	0.536
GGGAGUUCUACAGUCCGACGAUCCCUCUGUCGGGAUUGUAUCUCGACAUCCCUGUCGCGUUUUUCUUAGCUGGAGUGUGUGCUGCCUUUCAGGUACAACUUUUAUGUAAUAAAAGCCAGAGCAUUAAGCUUACUGGAAUUCUCGGGUGCCAA	0.304
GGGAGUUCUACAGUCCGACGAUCUUAACUCUAGAAUCCCGUGUGCCCUUCUUGCUCACCGAACGUGAGAGUAUGGGCUGAGCAGGGGGAUUGAAUGUGACUGUUAAAAACACUCAUGUACUGUCCAAAAGUGCUGGAAUUCUCGGGUGCCAA	0.439
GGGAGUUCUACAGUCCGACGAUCUGCUCUGUGGAAGGAGGCGGGAAGGGAACGUUGGCCAAGUCAGUUACUGAGAUGAAGAUCGCCCAGCUGCCAGGACCACCCCAGGACAAGUUAGAGCACUGUUUAGCUCCUGGAAUUCUCGGGUGCCAA	0.555
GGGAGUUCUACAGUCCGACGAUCUUGCACAGGAGUGGGGCUCUGGUGACCGAAGGUUGUCCAGGACUCUUGCAGGAGAAGCAAUGGAGUCAGUGUGGUGUGGGGAGACCUACUUUUUAACCUGGGCUUAGCCAUGGAAUUCUCGGGUGCCAA	0.538
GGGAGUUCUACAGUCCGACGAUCAUAGUUAGUGCCACAAGAUAAAUAAAAGAAACUAAAGGAUUACAAUUUGAACUUUUCAAGAAGUAGGUCCUAGUACUUGGGAUCUUGUUAGAUCUGUGCUCUGGAGGUGGUGGAAUUCUCGGGUGCCAA	0.335
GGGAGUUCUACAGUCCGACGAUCACCAGGCCAAAUCUAUUUGCCAAGCAGUGUAUCACUAAUAAGAAAAGCAGUUUUUCCUUUUAUUGCAGUUUUUGUUUAUCUGCCAUAGAAUUUCCUUAUACUGUGGCUUGUGGAAUUCUCGGGUGCCAA	0.316

Further values, each from its own experiment
Molecule	target	assay	test system	setting	how to read	measurement	value
PhoQ, residues 284 288 289 292 302 303 SLANKL	PhoP, residues 12 14 15 18 19 AQCLL (Escherichia coli, UniProt P23836)	Sort-seq, refers to: YFP reporter	E. coli	PhoQ-PhoP variant library, with: 10 µM Mg2+	relative to: high Mg2+ state, higher = stronger signaling	fold induction	6.25
